Experimental data collected from several papers.
Protocols differ between the studies behind these lines. Values joined by “and” are separate records of one study, mostly repeats; a detail may differ. ± gives the spread as reported.

SMILES | test | test system | conditions | how to read | endpoint | result
O=C1CCC(N2Cc3c(ccc(C(=O)O)c3F)C2=O)C(=O)N1 (centres unmarked) | deuterium-hydrogen exchange | aqueous phosphate buffer | pH 7.4, 37 °C | – | exchange rate constant | -0.037 h⁻¹
Cc1ccc(N(O)/N=N/c2ccc(S(=O)(=O)Nc3nccs3)cc2)cc1 | ABTS scavenging | – | 60 µg/mL | – | inhibition | 49.8%
COC1OC(C)C(OC2OC(C)C(O)C(OS(=O)(=O)O)C2OS(=O)(=O)O)C(OS(=O)(=O)O)C1OS(=O)(=O)O (centres unmarked) | – | human plasma | 128 µg/mL | – | activated partial thromboplastin time | 33.7 ± 0.4 s
COc1cc(O)ccc1CCC(c1ccc(O)cc1)c1cc2c(c(C)c1O)OC(c1ccc(O)cc1)CC2 (mixture of isomers) | – | human blood | 3 µM, together with: A23187 | – | TXB2 level | 561 ± 51 pg/mL
COC1CN([C@H]2CC[C@H]([C@@]3(C)Oc4c(Cl)cc(C(=O)NCc5c(SC)cc(C)[nH]c5=O)c(C)c4O3)CC2)C1 | RNA-seq, measured: PALM | human cancer patients, whole blood | dose not given, 24 h, PRC2 target gene | baseline: pretreatment sample | log2 fold change | 4.84
COC1OC(C)C(OC2OC(C)C(O)C(OC3OC(C)C(OC4OC(C)C(O)C(OC5OC(C)C(OC6OC(C)C(O)C(OC7OC(C)C(OC8OC(C)C(O)C(OS(=O)(=O)O)C8OS(=O)(=O)O)C(OS(=O)(=O)O)C7OS(=O)(=O)O)C6OS(=O)(=O)O)C(OS(=O)(=O)O)C5OS(=O)(=O)O)C4OS(=O)(=O)O)C(OS(=O)(=O)O)C3OS(=O)(=O)O)C2OS(=O)(=O)O)C(OS(=O)(=O)O)C1OS(=O)(=O)O (centres unmarked) | – | human plasma | 8 µg/mL | – | activated partial thromboplastin time | 52.1 s and 50.4 s and 52.4 s
CC(=O)[O-].O.O.O.O.[Ni+2].[O-]c1ccc(Br)cc1C=NCCN1CCOCC1 | hydroxyl radical scavenging | – | 200 µM | – | inhibition | 46.8%
COC1OC(C)C(OS(=O)(=O)O)C(OC2OC(C)C(OS(=O)(=O)O)C(OC3OC(C)C(OS(=O)(=O)O)C(OC4OC(C)C(OS(=O)(=O)O)C(OC5OC(C)C(OS(=O)(=O)O)C(OC6OC(C)C(OS(=O)(=O)O)C(OC7OC(C)C(OS(=O)(=O)O)C(OC8OC(C)C(OS(=O)(=O)O)C(OS(=O)(=O)O)C8OS(=O)(=O)O)C7OS(=O)(=O)O)C6OS(=O)(=O)O)C5OS(=O)(=O)O)C4OS(=O)(=O)O)C3OS(=O)(=O)O)C2OS(=O)(=O)O)C1OS(=O)(=O)O (centres unmarked) | – | human plasma | 16 µg/mL | – | activated partial thromboplastin time | 74.5 s and 75.9 s and 76 s
CN1CCC[C@]1(C)/C=C/S(=O)(=O)NC(=O)Nc1c2c(cc3c1CCC3)CCC2 | – | human, whole blood ex vivo | 400 mg single dose, 12 h, single ascending dose, together with: LPS and ATP | – | IL-1β inhibition | 99.3%
COC1OC(C)C(OC2OC(C)C(OS(=O)(=O)O)C(OC3OC(C)C(OC4OC(C)C(OS(=O)(=O)O)C(OC5OC(C)C(OC6OC(C)C(OS(=O)(=O)O)C(OS(=O)(=O)O)C6OS(=O)(=O)O)C(OS(=O)(=O)O)C5OS(=O)(=O)O)C4OS(=O)(=O)O)C(OS(=O)(=O)O)C3OS(=O)(=O)O)C2OS(=O)(=O)O)C(OS(=O)(=O)O)C1OS(=O)(=O)O (centres unmarked) | – | human plasma | 32 µg/mL | – | activated partial thromboplastin time | 70 s and 74.1 s and 73.4 s
COc1cc2c(NC3CCN(C(C)C)CC3)cc(N3CCOCC3)nc2cc1OCCCN1CCCC1 | TMT proteomics, measured: NPTXR | 5xFAD mice, hippocampus | dose not given, unit not given | baseline: untreated 5xFAD | protein level difference | -0.167
COC1OC(C)C(OC2OC(C)C(O)C(OC3OC(C)C(OC4OC(C)C(O)C(OC5OC(C)C(OC6OC(C)C(O)C(OS(=O)(=O)O)C6OS(=O)(=O)O)C(OS(=O)(=O)O)C5OS(=O)(=O)O)C4OS(=O)(=O)O)C(OS(=O)(=O)O)C3OS(=O)(=O)O)C2OS(=O)(=O)O)C(OS(=O)(=O)O)C1OS(=O)(=O)O (centres unmarked) | – | human plasma | 64 µg/mL | – | activated partial thromboplastin time | 76.5 s and 73.8 s and 69 s
CNCc1ccc(-c2cc(=O)c3ccc4[nH]c(C(F)(F)F)nc4c3o2)cc1 | immunohistochemistry | 3xTg mice, hippocampus | dose not given, 3 months | – | Aβ aggregation | decreased
CCCCCc1ccc(S(=O)(=O)N2CC2C(=O)OC)cc1 (centres unmarked) | – | mouse, Lewis lung carcinoma | intraperitoneal, 5 mg/kg, 16 doses, day 13 | – | tumour growth inhibition | 73%
C=CC(=O)N1CC2C(=O)N(CCN(C)C)c3c(c4cc(Cl)c(-c5c(O)cccc5F)nc4n(-c4c(C)ccnc4C(C)C)c3=O)N2CC1C (centres unmarked) | immunohistochemistry | BALB/c nude mouse, H358-Luc intracranial tumour, brain tissue | 100 mg/kg, 21 days | – | p-ERK level | decreased
O=C(c1ccc([C@H]2[C@@H](F)[C@@H](F)C[C@@H](F)[C@H]2F)cc1)N1CCC(F)CC1 | liver microsome stability | human liver microsomes | 1 µM, without NADPH | – | hepatic clearance | 3.9 mL/min/kg
COC1OC(C)C(OC2OC(C)C(O)C(OC3OC(C)C(OC4OC(C)C(O)C(OC5OC(C)C(OC6OC(C)C(O)C(OC7OC(C)C(OC8OC(C)C(O)C(OC9OC(C)C(OC%10OC(C)C(O)C(OC%11OC(C)C(OC%12OC(C)C(O)C(OS(=O)(=O)O)C%12OS(=O)(=O)O)C(OS(=O)(=O)O)C%11OS(=O)(=O)O)C%10OS(=O)(=O)O)C(OS(=O)(=O)O)C9OS(=O)(=O)O)C8OS(=O)(=O)O)C(OS(=O)(=O)O)C7OS(=O)(=O)O)C6OS(=O)(=O)O)C(OS(=O)(=O)O)C5OS(=O)(=O)O)C4OS(=O)(=O)O)C(OS(=O)(=O)O)C3OS(=O)(=O)O)C2OS(=O)(=O)O)C(OS(=O)(=O)O)C1OS(=O)(=O)O (centres unmarked) | – | human plasma | 16 µg/mL | – | activated partial thromboplastin time | 53 s and 51.6 s and 52.5 s
COc1ccc(NC(=O)c2ccc3[nH]c(-c4ccc(N(C)C)cc4)nc3c2)cn1 | – | CT26, BALB/c nude mice, subcutaneous graft | dose not given, day 7 | – | tumour volume | 678 mm3 and 858 mm3 and 431 mm3 and 223 mm3 and 702 mm3
COC1OC(C)C(OC2OC(C)C(O)C(OC3OC(C)C(OC4OC(C)C(O)C(OC5OC(C)C(OC6OC(C)C(O)C(OC7OC(C)C(O)C(OS(=O)(=O)O)C7OS(=O)(=O)O)C6OS(=O)(=O)O)C(OS(=O)(=O)O)C5OS(=O)(=O)O)C4OS(=O)(=O)O)C(OS(=O)(=O)O)C3OS(=O)(=O)O)C2OS(=O)(=O)O)C(OS(=O)(=O)O)C1OS(=O)(=O)O (centres unmarked) | – | human plasma | 64 µg/mL | – | activated partial thromboplastin time | 69.2 s and 67.9 s and 70.3 s
Nc1nc2cc(CC[C@H]3C[C@@H](n4ccc5c(N)ncnc54)[C@H](O)[C@@H]3O)ccc2cc1Br | – | A-427 xenograft, mouse | 1.0 mg/kg/day, day 34 | – | tumour volume | 329 ± 77 mm3
O=C(CN1CCOCC1)Nc1ccc(C2CCCCC2)cc1 | hepatocyte stability | cryopreserved rat hepatocytes | 1 µM | – | hepatic clearance | 45 mL/min/kg
Cc1[nH]nc2c1N=C(c1ccccc1Cl)c1cnc(N3CCOCC3)cc1N2 | – | mouse sample D TNBC PDX, LAR subtype | oral, 15 mg/kg, 5 days per week | – | tumour growth inhibition | 97%
COCC1CN(C2CCN(c3cc(OC)c(Nc4ncc(Br)c(Nc5ccc6c(c5P(C)(C)=O)OCCO6)n4)cc3C)CC2)C1 | RECIST 1.1 | advanced EGFR-mutant NSCLC patients | 150 mg once daily | – | disease control rate | 33.3%
COc1ccc(C(=O)CCc2cc(C(CCc3ccc(O)cc3OC)c3ccc(O)cc3)c(O)cc2OC)cc1 (racemic) | – | human blood | 3 µM, together with: A23187 | – | TXB2 level | 1330 ± 482 pg/mL
COC1OC(C)C(OC2OC(C)C(O)C(OC3OC(C)C(O)C(OS(=O)(=O)O)C3OS(=O)(=O)O)C2OS(=O)(=O)O)C(OS(=O)(=O)O)C1OS(=O)(=O)O (centres unmarked) | – | human plasma | 128 µg/mL | – | activated partial thromboplastin time | 35 ± 0.2 s
CN(C)Cc1nc(Nc2ccc(-c3cnc4cc(F)ccn34)c3c2C(=O)NC3)ccc1C1CCOC1 (centres unmarked) | – | mouse EMT6 tumour model, whole blood | 75 mg/kg, 2 h | – | pSLP76 decrease | > 50%

A few entries again:
SMILES | test | test system | conditions | how to read | endpoint | result
C=CC(=O)N1CC2C(=O)N(CCN(C)C)c3c(c4cc(Cl)c(-c5c(O)cccc5F)nc4n(-c4c(C)ccnc4C(C)C)c3=O)N2CC1C (centres unmarked) | immunohistochemistry | BALB/c nude mouse, H358-Luc intracranial tumour, brain tissue | 100 mg/kg, 21 days | – | p-ERK level | decreased
COc1cc2c(NC3CCN(C(C)C)CC3)cc(N3CCOCC3)nc2cc1OCCCN1CCCC1 | TMT proteomics, measured: NPTXR | 5xFAD mice, hippocampus | dose not given, unit not given | baseline: untreated 5xFAD | protein level difference | -0.167
Cc1ccc(N(O)/N=N/c2ccc(S(=O)(=O)Nc3nccs3)cc2)cc1 | ABTS scavenging | – | 60 µg/mL | – | inhibition | 49.8%
COC1OC(C)C(OC2OC(C)C(O)C(OC3OC(C)C(OC4OC(C)C(O)C(OC5OC(C)C(OC6OC(C)C(O)C(OC7OC(C)C(O)C(OS(=O)(=O)O)C7OS(=O)(=O)O)C6OS(=O)(=O)O)C(OS(=O)(=O)O)C5OS(=O)(=O)O)C4OS(=O)(=O)O)C(OS(=O)(=O)O)C3OS(=O)(=O)O)C2OS(=O)(=O)O)C(OS(=O)(=O)O)C1OS(=O)(=O)O (centres unmarked) | – | human plasma | 64 µg/mL | – | activated partial thromboplastin time | 69.2 s and 67.9 s and 70.3 s
